Published values gathered from unrelated publications.
Parts stem from different laboratories: compare values within a part only.

Sample 1 — technique: RNA Bind-n-Seq; molecule type: RNA; medium: in vitro; tested at: 365 nM; relative to: no-protein control; reading: higher = stronger binding
Target: RNA binding protein fox-1 homolog 2, RRM domain, GST-SBP tag (RBFOX2, Homo sapiens, UniProt O43251-10, residues 100-194)
Notes: natural RNA segment, single round, ends assumed
All sequences stand within: GGGAGUUCUACAGUCCGACGAUC … UGGAAUUCUCGGGUGCCAA
Oligonucleotide	RBNS enrichment (R)
AGAGGUAGCCACAGUCCUGGAGUACCAUAGGGUGAUGUUCCUUCUGCAUGCAUCUGCAGGGCCUGUGAGAUCUGGUGUAAAAAGAGACAUGACAUGUGGAGAUGGGACUU	7.47
UGAAUGUAUAUGUUGUAAUUGAGGCAGAUAUUUGCCUUAAUUGGAAGGAUCUAACUGCUUUACAAAUAUUAAACAAGUGCUUGGGCAUGAUUGGGAGAGGAGGCAGCUUA	5.37
UCCUUUAAUCACAGUCACUGUUUGUUUACCUUGAGCAGUAAACCCGAAGUCAGCCUGCUCUACUACUAACAAACAGGCCUGCUGCUAGAUGAUCUCUAAUGACCAAUGGG	0.473
ACCCCUUCACAGACUGACAGAAUGGUUUUGUUUUGUUUUGUUUUGUUUUGUUUUGUUUUUGAGAUGGACUCUAGCUCUGUCACCCAGGCUGGAGUGCAGUGGUGCGAUCU	1.98
GACCGAGGCCUGGUCACAGCAGCGAGCAUCCAGGGUUUGCAGGGACGAUGUUACAGACUCUGUUUUCUGCCUGGCGUUUCACUUGUGUCUGCUCCUAGCCUGUGCUCUGC	0.427
UUCCCUUGAGCCAGCUCCAUUGCUACUUAUUCAUGUGACUGAAGCUGACCACAGGCAGCUGGCAGGUCCUUUUUUCAACCAGCAGGCUAGGCUGGCCAUAGACCCAGCUC	0.426
AAAGUGGCUCCAGGGACUUAAGUGAAGUUCACUACUCUUAUCAGCAGUGCUGGAGAGCGGAGGAUUGGGGGCGGGGAUUCAGACUUUCUGGGUUCACAUCUGUGUUUUGC	0.58
UCCUUAGACAAUUAACCACCAAAUUCCCUGGGGUUCAUUGCCAUGCAGUUCAUUUCCCACUAACCAUGCAGGUGCACAUCACGGAAAUACCGGUUUAACUACUAGUGUGU	0.511

Sample 2 — technique: universal PBM; molecule type: double-stranded DNA, one strand shown; medium: in vitro; tested at: 600 nM; reading: higher = stronger binding
Target: Sal-like protein 4, full length isoform A (SALL4, Homo sapiens, UniProt Q9UJQ4, residues 1-1053)
Sequence of UniProt Q9UJQ4 (whole entry, looked up): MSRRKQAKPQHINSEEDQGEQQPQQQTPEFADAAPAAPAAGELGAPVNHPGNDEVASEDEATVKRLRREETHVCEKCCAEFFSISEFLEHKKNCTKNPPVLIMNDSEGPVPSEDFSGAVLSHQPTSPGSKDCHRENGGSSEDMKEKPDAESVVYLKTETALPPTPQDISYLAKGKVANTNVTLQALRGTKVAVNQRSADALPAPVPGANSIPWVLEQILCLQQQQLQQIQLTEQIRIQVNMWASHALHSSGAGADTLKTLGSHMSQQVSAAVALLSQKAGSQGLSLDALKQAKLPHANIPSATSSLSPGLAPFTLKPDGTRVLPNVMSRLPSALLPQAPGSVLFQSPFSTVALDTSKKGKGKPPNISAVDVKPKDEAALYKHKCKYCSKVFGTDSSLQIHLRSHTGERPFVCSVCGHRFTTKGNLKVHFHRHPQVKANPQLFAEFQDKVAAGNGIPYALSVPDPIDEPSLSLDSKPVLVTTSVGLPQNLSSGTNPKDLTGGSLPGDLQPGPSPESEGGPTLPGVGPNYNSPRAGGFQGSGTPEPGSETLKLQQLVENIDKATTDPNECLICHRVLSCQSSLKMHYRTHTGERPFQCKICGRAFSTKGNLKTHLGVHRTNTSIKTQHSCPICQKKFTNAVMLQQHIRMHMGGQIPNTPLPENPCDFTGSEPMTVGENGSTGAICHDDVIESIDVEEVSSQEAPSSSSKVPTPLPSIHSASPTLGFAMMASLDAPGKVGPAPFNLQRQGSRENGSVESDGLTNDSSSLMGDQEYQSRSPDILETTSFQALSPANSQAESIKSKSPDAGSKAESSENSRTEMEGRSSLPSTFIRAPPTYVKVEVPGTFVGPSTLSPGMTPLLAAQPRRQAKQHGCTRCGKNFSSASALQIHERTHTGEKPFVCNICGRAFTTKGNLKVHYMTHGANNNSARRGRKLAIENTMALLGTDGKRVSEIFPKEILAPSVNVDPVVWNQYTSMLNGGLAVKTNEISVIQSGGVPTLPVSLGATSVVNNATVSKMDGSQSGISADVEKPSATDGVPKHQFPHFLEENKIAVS
Notes: 8-mer, flanks averaged, mean of replicates
Oligonucleotide	E-score
GCGTAGCC	-0.29
GGAAATTA	0.311
GCGATTAA	0.175
GATGCGCA	-0.0537
ATGACCTA	0.145
ACCGGGGC	-0.456
CACCAGCG	-0.226
GAGTTCAA	0.123
ATAGAATC	0.233
AGCCGTGA	-0.0494
ATGATTGC	0.212
CCCAGAAG	-0.216
GATCTTCC	-0.227
ATATCGGA	0.268
ACGAAACC	-0.026
CAATATGC	0.184
ATAATCAA	0.34
CAGTTCGA	-0.0992
GAGCCGAC	-0.396
CTATTCAA	0.237
CATCATCG	0.065
ACAGCTCA	-0.117
ATAACGGC	0.169
ACCCCAGG	-0.369
AACTCACT	-0.0411

Sample 3 — technique: protein binding microarray; molecule type: double-stranded DNA, one strand shown; medium: in vitro; tested at: not given; relative to: not given; reading: higher = stronger binding
Target: Histone acetyltransferase KAT6A, both winged helices, GST fusion (KAT6A, Homo sapiens, UniProt Q92794, residues 1-181)
Notes: 8-mer, flanks averaged, mean of 2 arrays, mostly near background
Target sequence (chain): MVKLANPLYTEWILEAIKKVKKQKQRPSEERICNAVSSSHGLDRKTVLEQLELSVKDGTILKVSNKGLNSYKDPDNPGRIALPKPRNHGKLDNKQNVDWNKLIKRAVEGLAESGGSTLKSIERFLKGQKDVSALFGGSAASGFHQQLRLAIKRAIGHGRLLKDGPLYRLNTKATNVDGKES
Oligonucleotide	E-score
GATAAGTA	0.0378
AACACCTA	-0.09
CGTGCTTA	0.041
ATTCCAAC	-0.19
GCAACTAA	-0.00899
AGGGTCGC	0.0341
ACGGCCCA	0.133
GCAGTTAC	0.046
TAAGGGAA	-0.2
GCTTAACC	0.0672
CGATCATC	-0.0292
AGCTGTGA	-0.0808
AGGACCAG	-0.135
CACGCGCA	0.305
GGACGTAC	0.00287
CATGAATC	0.0184
GCGGATGA	0.128
ATGCCTAG	-0.121

Sample 4 — target: UBE2E3 UBC core domain (UniProt Q969T4); technique: yeast two-hybrid; medium: yeast; notes: mostly zero background; relative to: not given; reading: higher = stronger interaction
Sequence of UniProt Q969T4 (whole entry, looked up): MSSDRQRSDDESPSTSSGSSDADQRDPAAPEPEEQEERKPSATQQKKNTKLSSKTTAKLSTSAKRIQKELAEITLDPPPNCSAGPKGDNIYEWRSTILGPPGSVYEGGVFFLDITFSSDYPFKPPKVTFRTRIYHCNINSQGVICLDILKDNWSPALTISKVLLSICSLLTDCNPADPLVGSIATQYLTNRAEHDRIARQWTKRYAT
B1: SYTL4 RING domain (UniProt Q96C24); chain RGSQHYSDRTCARCQESLGRLSPKTNTCRGCNHLVCRDCRIQESNGTWRCKVCAKEIELKKAT
B2: TRIM62 RING domain (UniProt Q9BVG3); chain MACSLKDELLCSICLSIYQDPVSLGCEHYFCRRCITEHWVRQEAQGARDCPECRRTFAEPALAP
B3: DTX2 RING domain (UniProt Q86UW9); chain EELKVPPDEDCIICMEKLSTASGYSDVTDSKAIGSLAVGHLTKCSHAFHLLCLLAMYCNGNKDGSLQCPSCKTIYGEKTGTQ
B4: DZIP3 RING domain (UniProt Q86Y13); chain PDEEEEEEEPCVICHENLSPENLSVLPCAHKFHAQCIRPWLMQQGTCPTCRLHVLLPEEFP
B5: SH3RF1 RING domain (UniProt Q7Z6J0); chain DESALLDLLECPVCLERLDASAKVLPCQHTFCKRCLLGIVGSRNELRCPECRTLVGSGVEEL
B6: ZMIZ2 RING domain (UniProt Q8NF64); chain GTIPGTPGPNGEDGVEQTAIKVSLKCPITFRRIQLPARGHDCRHIQCFDLESYLQLNCERGTWRCPVCNKTALLEGLEVDQYMLGILIYIQNSDYEEITIDPTCSWK
B7: RBCK1 RING domain (UniProt Q9BYM8); chain SLVLNTEPAECPVCYSVLAPGEAVVLRECLHTFCRECLQGTIRNSQEAEVSCPFIDNTYSCSGKLLEREIK
Molecule	lacZ reporter activity
B1 (SYTL4 RING domain)	0
B2 (TRIM62 RING domain)	0
AMYLQENGIDCPKCKFSYALARGGCMHFHCTQCRHQFCSGCYNAFYAKNKC (RNF31 RING domain (UniProt Q96EP0))	0
B3 (DTX2 RING domain)	0
B4 (DZIP3 RING domain)	0
KETIKKTTKPCPRCHVPVEKNGGCMHMKCPQPQCRLEWCWNCGCEWNRVCMG (PRKN RING domain (UniProt O60260))	0
FDGDVDPDLKCALCHKVLEDPLTTPCGHVFCAGCVLPWVVQEGSCPARCRGRLSAKELN (PDZRN3 RING domain (UniProt Q9UPQ7))	0
GSRLQEINDVCAICYHEFTTSARITPCNHYFHALCLRKWLYIQDTCPMCHQKVYIEDDIK (RNF139 RING domain (UniProt Q8WU17))	0
PEDRESLKSACVVCLSSFKSCVFLECGHVCSCTECYRALPEPKKCPICRQAITRVIPLY (MUL1 RING domain (UniProt Q969V5))	9860
B5 (SH3RF1 RING domain)	0
B6 (ZMIZ2 RING domain)	0
GSDDEEIPFKCFICRQSFQNPVVTKCRHYFCESCALQHFRTTPRCYVCDQQTNGVFNPA (RNF113A RING domain (UniProt O15541))	0
B7 (RBCK1 RING domain)	0
YQNEVDDDLVCHICLQPLLQPLDTPCGHTFCYKCLRNFLQEKDFCPLDRKRLHFKLCKK (LNX2 RING domain (UniProt Q8N448))	0
